Assay results pooled from the literature.
Every numbered part comes from another study and shows a few of its results, in no order. Changes are numbered by the printed parent chain.

Block 1 — method: competition protein-binding microarray; form: double-stranded DNA, one strand shown; matrix: in vitro; tested at: 2 µM; together with: Cbf1 competitor, 0.05 µM; direction: higher = stronger binding; constant ends, left off below: … GTCTTGATTCGCTTGACGCTGCTG
Target: Phosphate system positive regulatory protein PHO4, full length, GST-tagged (PHO4, Saccharomyces cerevisiae, UniProt P07270, residues 1-312)
UniProt P07270, sequence (whole entry, looked up): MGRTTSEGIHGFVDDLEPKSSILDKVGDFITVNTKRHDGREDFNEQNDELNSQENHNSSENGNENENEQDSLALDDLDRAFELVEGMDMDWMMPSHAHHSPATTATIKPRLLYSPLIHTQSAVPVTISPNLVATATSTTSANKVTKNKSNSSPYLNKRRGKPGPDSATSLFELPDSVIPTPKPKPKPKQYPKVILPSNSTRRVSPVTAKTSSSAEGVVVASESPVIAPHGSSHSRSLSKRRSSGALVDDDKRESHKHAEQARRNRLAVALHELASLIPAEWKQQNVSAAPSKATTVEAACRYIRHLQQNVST
Notes: whole 60-bp probe, lowest competitor level
Sequence | fluorescence intensity
ACCAAAGGGTTCTTGCGGGTGTAGATCCCAAGTCCA | 3090 a.u.
AAATTACTAAGTTGAAAGGTGGGTGACGCCGTATGA | 4120 a.u.
GAAACAGCCGCTTGCCACGTTGCTCGATAAGTTCTT | 14600 a.u.
ACCTACCCGCTTCATCACATGAACACCGCTTCCTGA | 5680 a.u.
CATCAATCTTTCCATCACGCAATGGCTTGTTGTTTT | 6370 a.u.
TGGTATATTGCCGTTTTCTGTATCAGTTGCTGATAT | 3250 a.u.
TCTGATTGTGACAGCCACGTGGCCGGCTGAGTGTAA | 18300 a.u.
CCTTGGCTGCCAAGGCCCGTGGTGAGCCATTGACCT | 7260 a.u.
TCAGCACCCTTTGGACTCGTGATGGCGTTGAAAGGT | 7590 a.u.
AAACAGAGCAACCATCACGTGCAAAAAGAACTACGA | 16900 a.u.
TTCAACGCTTTGAAACACGTGACGAAGATGCGGGTC | 14600 a.u.
GTCTTGTCTCATTTTCACGTGGTATTCCCCACTTCA | 11500 a.u.
TGTGGCTACGCTGGTCACGTGTTAGCAGAAGTCTTA | 16000 a.u.
CTTTCCCGATCTTGGTTGGTGGGTGTAGCACATTTG | 5140 a.u.
CATTGGTAATGTAACCACGTTTTGAGCCTGAAATGG | 13100 a.u.
GTCTTGTCTCATTGGCACGTGGGTGTCCCCACTTCA | 19100 a.u.

Block 2 — method: universal PBM; form: double-stranded DNA, one strand shown; matrix: in vitro; tested at: 600 nM; direction: higher = stronger binding
Target: Sal-like protein 4, full length isoform A (SALL4, Homo sapiens, UniProt Q9UJQ4, residues 1-1053)
UniProt Q9UJQ4, sequence (whole entry, looked up): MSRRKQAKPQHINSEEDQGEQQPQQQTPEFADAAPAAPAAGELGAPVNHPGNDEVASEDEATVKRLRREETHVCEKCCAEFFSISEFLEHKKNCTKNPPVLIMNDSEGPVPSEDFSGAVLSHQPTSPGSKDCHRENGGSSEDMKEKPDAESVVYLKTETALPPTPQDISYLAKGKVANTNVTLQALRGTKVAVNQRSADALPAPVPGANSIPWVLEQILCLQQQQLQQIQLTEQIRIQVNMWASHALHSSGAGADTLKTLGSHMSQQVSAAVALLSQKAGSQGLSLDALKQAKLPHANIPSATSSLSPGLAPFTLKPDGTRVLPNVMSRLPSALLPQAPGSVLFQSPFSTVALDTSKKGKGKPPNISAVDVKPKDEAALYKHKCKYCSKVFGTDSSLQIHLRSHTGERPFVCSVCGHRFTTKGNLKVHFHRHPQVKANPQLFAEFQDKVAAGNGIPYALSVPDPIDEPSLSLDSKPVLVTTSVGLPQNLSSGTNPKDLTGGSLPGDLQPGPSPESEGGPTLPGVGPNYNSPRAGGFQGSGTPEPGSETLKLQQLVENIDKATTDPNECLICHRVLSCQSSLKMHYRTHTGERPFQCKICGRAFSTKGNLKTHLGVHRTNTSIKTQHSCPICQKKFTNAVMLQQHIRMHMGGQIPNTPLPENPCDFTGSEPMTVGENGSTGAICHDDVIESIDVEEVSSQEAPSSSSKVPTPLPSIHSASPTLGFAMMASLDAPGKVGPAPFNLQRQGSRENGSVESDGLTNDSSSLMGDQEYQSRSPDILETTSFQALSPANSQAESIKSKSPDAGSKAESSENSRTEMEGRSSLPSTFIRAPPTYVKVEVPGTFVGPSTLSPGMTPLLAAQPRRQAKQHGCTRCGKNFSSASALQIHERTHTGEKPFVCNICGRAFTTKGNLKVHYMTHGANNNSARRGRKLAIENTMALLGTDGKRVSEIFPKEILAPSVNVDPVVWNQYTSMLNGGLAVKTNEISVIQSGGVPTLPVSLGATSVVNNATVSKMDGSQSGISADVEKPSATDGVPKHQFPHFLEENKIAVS
Notes: 8-mer, flanks averaged, mean of replicates
Sequence | E-score
ACGAGTGC | -0.0953
AGGGTACT | -0.21
ATCGGACC | -0.28
ATCTCCGC | -0.247
CCCACTCA | 0.0333
CAACAGGC | -0.0471
GCGATACC | -0.253
AGGGTGGC | -0.201
ATATGCTA | 0.274
CATATCGG | 0.167
GTTACGGA | -0.0907
AACGATGC | -0.0757
GACTCCAC | -0.25
AAGATAAG | 0.153
ATTCCATC | 0.197
CTCGTGCC | -0.347
CTCTTTCC | -0.258
AGGCTAGA | -0.0455
GTCAGAAA | 0.0429
CAGACCTA | 0.0261
TCCAGCAA | 0.103
GACCACTA | -0.0241
GCTGCGAA | -0.112
TCGGGACA | -0.168
GTCTGCGA | -0.137

Block 3 — target: FOS, bZIP domain (human); method: DHFR protein complementation; matrix: yeast; baseline: wild-type JUN-FOS pair; direction: higher = stronger binding
Notes: single substitutions, most at no-binding floor
Starting sequence: JUN, bZIP domain (human); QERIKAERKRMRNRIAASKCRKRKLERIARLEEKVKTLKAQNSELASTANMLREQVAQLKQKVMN; partner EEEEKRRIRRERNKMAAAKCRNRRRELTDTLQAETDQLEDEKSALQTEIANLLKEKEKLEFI
Substitution | binding fitness [natural log]
S43C | -0.0624
T37C | -0.0489
A57L | -0.242
A46C | -0.278
A46L | -0.0702
E32Y | -0.329
E33C | -0.307
K36E | -0.0199
T48F | -0.0488
V56S | -1.29
L52D | -1.46
L31Q | -0.239
S47C | -0.0254
M51A | 0.0669
A57W | -0.2
L38P | -1.24

Block 4 — method: protein-binding microarray; form: double-stranded DNA, one strand shown; matrix: in vitro; tested at: 250 nM; notes: 60-bp whole probe; together with: salmon DNA 0.4 mg/ml; baseline: random background probes; direction: higher = stronger binding; constant ends, left off below: GCCTAGCAC … GTCTTGATTCGCTTGACGCTGCTG
Target: Interferon regulatory factor 7, full length, phosphomimetic (IRF7, Homo sapiens, UniProt Q92985, residues 1-503, S101K/S471D/S472D/S475D/S476D/S477D/S483D/S484D/S487D)
Target sequence (chain): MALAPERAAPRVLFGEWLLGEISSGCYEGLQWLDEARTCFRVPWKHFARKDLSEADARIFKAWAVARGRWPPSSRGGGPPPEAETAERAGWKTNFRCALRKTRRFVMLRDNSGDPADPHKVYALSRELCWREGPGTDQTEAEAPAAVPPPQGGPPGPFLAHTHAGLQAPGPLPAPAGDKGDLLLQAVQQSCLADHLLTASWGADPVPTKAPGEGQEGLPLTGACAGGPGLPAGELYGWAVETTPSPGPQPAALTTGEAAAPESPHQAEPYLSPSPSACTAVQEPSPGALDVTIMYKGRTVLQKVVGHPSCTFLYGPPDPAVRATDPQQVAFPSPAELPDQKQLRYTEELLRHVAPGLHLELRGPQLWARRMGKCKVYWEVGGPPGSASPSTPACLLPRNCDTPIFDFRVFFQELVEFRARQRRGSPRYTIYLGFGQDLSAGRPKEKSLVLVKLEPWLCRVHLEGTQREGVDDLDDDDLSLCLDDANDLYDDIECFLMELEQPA
Sequence | log fluorescence
TCAGATCTCAGACTGGATTAGTGCTAG | 0.121 z-score
GACGAACTGAGTATGGAGACGTGCTAG | -0.55 z-score
AACGGTATCCTTTTCCTGACGTGCTAG | 1.06 z-score
TTAGGACTGCTTCTTCTTTAGTGCTAG | 0.506 z-score
GACGATCTCCGTATCGAGACGTGCTAG | -0.034 z-score
TTAGGTTTTCTACTGCTTTAGTGCTAG | 0.528 z-score
CTAGGTCTCGGTATCGGTTAGTGCTAG | 3.62 z-score
GAAGGTTTCGGTTTCGGGACGTGCTAG | 14.2 z-score
TTGGGTCTCGGACTGGGTTAGTGCTAG | -0.072 z-score
GACGATTCCAGATTCGAGACGTGCTAG | 1.42 z-score
TCATTTATGGTATTTTTACTGTGCTAG | 0.435 z-score
GACGATTTCGGGTAACGAGACGTGCTA | 0.615 z-score
TTAGGTATCCTTCTCCTTTAGTGCTAG | 0.502 z-score
GACGGTTTCGGGTTTCGGGGCGTGCTA | 11.2 z-score
TGCTTCTAACAGAGGAGGTTGTGCTAG | 0.645 z-score
GACGGACTGGGTACCGGGACGTGCTAG | -0.303 z-score
TCATTTTTCATCATTGCACTGTGCTAG | 0.88 z-score
GACGGACTGGACTTTTGGGACGTGCTA | -0.993 z-score
CACGGTATCCTTTTCCTGACGTGCTAG | 1.07 z-score
TTAGCTTCCCTTTTCCTTTAGTGCTAG | 1.26 z-score
GGATGTGTCTTAAATAGGGCAGTGCTA | -0.402 z-score
GACGGATTCGGGACTGGGGACGTGCTA | 0.297 z-score
GACGATTTCGGGACTGCAGACGTGCTA | 0.167 z-score
TTAGGTATCGGGTTTCTGTTAGTGCTA | 3.46 z-score
TTAGGTATCAGTCTCGATTAGTGCTAG | 1.45 z-score

Block 5 — target: UBE2Q2 UBC core domain (UniProt Q8WVN8); method: yeast two-hybrid; matrix: yeast; notes: mostly zero background; baseline: not given; direction: higher = stronger interaction
UniProt Q8WVN8, sequence (whole entry, looked up): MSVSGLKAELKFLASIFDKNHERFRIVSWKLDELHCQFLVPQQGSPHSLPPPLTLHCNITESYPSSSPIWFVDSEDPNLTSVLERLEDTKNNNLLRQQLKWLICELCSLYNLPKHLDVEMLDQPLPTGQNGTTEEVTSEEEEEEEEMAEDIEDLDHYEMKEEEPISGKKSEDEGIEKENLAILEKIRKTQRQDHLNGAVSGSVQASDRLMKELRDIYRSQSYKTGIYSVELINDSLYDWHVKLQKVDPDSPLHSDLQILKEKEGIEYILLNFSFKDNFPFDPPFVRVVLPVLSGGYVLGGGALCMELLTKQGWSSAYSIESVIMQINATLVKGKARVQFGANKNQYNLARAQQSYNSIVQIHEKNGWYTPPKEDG
B1: UBOX5 RING domain (UniProt O94941); chain EQPGSILGPECASCKRVFSPYFKKEPVYQLPCGHLLCRPCLGEKQRSLPMTCTACQRPVASQDVLR
B2: RNF133 RING domain (UniProt Q8WVZ7); chain DEEINPNGDSCVICFERYKPNDIVRILTCKHFFHKNCIDPWILPHGTCPICKCDILKVLGIQ
B3: SH3RF1 RING domain (UniProt Q7Z6J0); chain DESALLDLLECPVCLERLDASAKVLPCQHTFCKRCLLGIVGSRNELRCPECRTLVGSGVEEL
B4: DTX2 RING domain (UniProt Q86UW9); chain EELKVPPDEDCIICMEKLSTASGYSDVTDSKAIGSLAVGHLTKCSHAFHLLCLLAMYCNGNKDGSLQCPSCKTIYGEKTGTQ
B5: MDM4 RING domain (UniProt O15151); chain MEDCQNLLKPCSLCEKRPRDGNIIHGRTGHLVTCFHCARRLKKAGASCPICKKEIQLVIKVF
B6: MAP3K1 RING domain (UniProt Q13233); chain NSIKDEEEQMCPICLLGMLDEESLTVCEDGCRNKLHHHCMSIWAEECRRNREPLICPLCRSKWRSHDFYS
B7: RNF19A RING domain (UniProt Q9NV58); chain ISKQIGDFIECPLCLLRHSKDRFPDIMTCHHRSCVDCLRQYLRIEISESRVNISCPECTERFNPHDIR
Molecule | lacZ reporter activity
B1 (UBOX5 RING domain) | 0
B2 (RNF133 RING domain) | 0
B3 (SH3RF1 RING domain) | 0
GSDDEEIPFKCFICRQSFQNPVVTKCRHYFCESCALQHFRTTPRCYVCDQQTNGVFNPA (RNF113A RING domain (UniProt O15541)) | 0
B4 (DTX2 RING domain) | 0
B5 (MDM4 RING domain) | 0
AMYLQENGIDCPKCKFSYALARGGCMHFHCTQCRHQFCSGCYNAFYAKNKC (RNF31 RING domain (UniProt Q96EP0)) | 0
GSRLQEINDVCAICYHEFTTSARITPCNHYFHALCLRKWLYIQDTCPMCHQKVYIEDDIK (RNF139 RING domain (UniProt Q8WU17)) | 0
PEDRESLKSACVVCLSSFKSCVFLECGHVCSCTECYRALPEPKKCPICRQAITRVIPLY (MUL1 RING domain (UniProt Q969V5)) | 0
B6 (MAP3K1 RING domain) | 0
B7 (RNF19A RING domain) | 0

Block 6 — target: CCNE2, cyclin fold, Cln2 fusion (human); method: yeast growth competition, sequencing; matrix: yeast; notes: strong parent motif; baseline: not given; direction: higher = stronger binding
Starting sequence: CDKN1B docking peptide (human); PSACRNLFGPVDH; partner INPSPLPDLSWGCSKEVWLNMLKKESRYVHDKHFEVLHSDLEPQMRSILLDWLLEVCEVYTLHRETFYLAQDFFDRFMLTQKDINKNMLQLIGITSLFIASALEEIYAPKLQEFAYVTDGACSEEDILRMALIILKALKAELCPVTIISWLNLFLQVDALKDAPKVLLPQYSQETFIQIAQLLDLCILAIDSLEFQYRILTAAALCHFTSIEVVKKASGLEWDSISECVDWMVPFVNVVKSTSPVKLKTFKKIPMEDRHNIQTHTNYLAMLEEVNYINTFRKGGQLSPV
Substitution | normalised enrichment score
N6T | 0.687
P1L | 0.951
R5V | 0.403
C4G | 0.0406
S2L | 0.843
S2H | 1.33
C4Y | 0.397
C4V | 1.59
H13N | 0.622
F8S | 0.688
S2E | -0.0902
V11E | 1.5
P10A | 1.12
F8I | 0.474
R5I | 0.0774
P10V | 1.42
P1T | 2.17

Repeated from above (block 5):
Molecule | lacZ reporter activity
PEDRESLKSACVVCLSSFKSCVFLECGHVCSCTECYRALPEPKKCPICRQAITRVIPLY (MUL1 RING domain (UniProt Q969V5)) | 0
GSDDEEIPFKCFICRQSFQNPVVTKCRHYFCESCALQHFRTTPRCYVCDQQTNGVFNPA (RNF113A RING domain (UniProt O15541)) | 0
B5 (MDM4 RING domain) | 0
B1 (UBOX5 RING domain) | 0
AMYLQENGIDCPKCKFSYALARGGCMHFHCTQCRHQFCSGCYNAFYAKNKC (RNF31 RING domain (UniProt Q96EP0)) | 0
GSRLQEINDVCAICYHEFTTSARITPCNHYFHALCLRKWLYIQDTCPMCHQKVYIEDDIK (RNF139 RING domain (UniProt Q8WU17)) | 0
B7 (RNF19A RING domain) | 0
B6 (MAP3K1 RING domain) | 0
B3 (SH3RF1 RING domain) | 0
